Experimental data gathered from unrelated publications.
Numbered parts are unrelated; each lists some results of a single study.

Sample 1 — mode: inhibitor; concentration: 20 µM; quantity: inhibition
Target: Replicase polyprotein 1ab, nsp13 helicase (rep, Severe acute respiratory syndrome coronavirus 2, UniProt P0DTD1)
NC1=N[C@@]2(c3cc(NC(=O)c4ccc(F)cn4)ccc3F)COC[C@H]2CS1: 0.82%
O=C(CN1CCN(C(=O)c2ccco2)CC1)Nc1cc(C(F)(F)F)ccc1Cl: 0.88%
O=C(O)/C=C/c1ccc(O)c(O)c1: 6.69%
C[C@@H]1O[C@@H]1P(=O)(O)O: 0.65%
CN[C@H](CC(C)C)C(=O)N[C@H]1C(=O)N[C@@H](CC(N)=O)C(=O)N[C@H]2C(=O)N[C@H]3C(=O)N[C@H](C(=O)N[C@H](C(=O)O)c4cc(O)cc(O)c4-c4cc3ccc4O)[C@H](O)c3ccc(c(Cl)c3)Oc3cc2cc(c3O[C@@H]2O[C@H](CO)[C@@H](O)[C@H](O)[C@H]2O[C@H]2C[C@](C)(N)[C@H](O)[C@H](C)O2)Oc2ccc(cc2Cl)[C@H]1O: 17.2%
Cc1[nH]c(/C=C2\C(=O)Nc3cc(-c4ccccc4)ccc32)c(C)c1CCC(=O)O: 2.08%
Cc1nnc(C[C@@H]2C=C(c3ccc(Cl)cc3)c3ccccc3-n3c(C)nnc32)o1: -0.42%
OC(CCN1CCCCC1)(c1ccccc1)c1ccccc1: 9.02%
O=c1oc2c(O)c(O)cc3c(=O)oc4c(O)c(O)cc1c4c23: 10.9%
CNCC(=O)c1ccc(O)c(O)c1: 8.93%
OC[C@H]1O[C@@H](Oc2cc(O)cc(/C=C/c3ccc(O)cc3)c2)[C@H](O)[C@@H](O)[C@@H]1O: 1.22%
O=C(O)CC1CC(c2ccccc2)=NO1 (stereo not shown): 8.09%
CCOC(=O)Nc1ccc2c(c1)N(C(=O)CCN(CC)CC)c1ccccc1S2: 4.62%
CCNC(=O)c1noc(-c2cc(C(C)C)c(O)cc2O)c1-c1ccc(CN2CCOCC2)cc1: 10.4%
CO[C@@]1(NC(=O)C2SC(=C(C(N)=O)C(=O)O)S2)C(=O)N2C(C(=O)O)=C(CSc3nnnn3C)CS[C@@H]21 (stereo partly shown): 8.07%
CN1C(=O)CC(C)(c2ccccc2)C1=O (stereo not shown): 4.26%
CC[C@@H](c1cccc(O)c1)[C@@H](C)CN(C)C: 5.47%
c1ccc(CN(CC2=NCCN2)c2ccccc2)cc1: 0.52%
Cc1cc2c(C(C)C)c(O)c(O)c(C=O)c2c(O)c1-c1c(C)cc2c(C(C)C)c(O)c(O)c(C=O)c2c1O: 28.1%
Cc1ncc(CNC(=O)N(CCCl)N=O)c(N)n1: 6.11%
CC1(C)O[C@@H]2C[C@H]3[C@@H]4CCC5=CC(=O)CC[C@]5(C)[C@@]4(F)[C@@H](O)C[C@]3(C)[C@]2(C(=O)CCl)O1: 3.09%
C[C@]12CCC(=O)C[C@@H]1CC[C@@H]1[C@@H]2CC[C@]2(C)[C@@H](O)CC[C@@H]12: 6.53%
CCCCN1CCCC1CNC(=O)c1cc(C#N)c2ccccc2c1OC (stereo not shown): 10.1%
Cc1cc(F)c(Nc2ncnc3cc(OCc4ccccc4)ccc23)cc1O: -6.39%
CC(C)Oc1ccc(-c2nn([C@@H](C)c3oc4ccc(F)cc4c(=O)c3-c3cccc(F)c3)c3ncnc(N)c23)cc1F: -0.27%

Sample 2 — method: universal PBM; molecule type: double-stranded DNA, one strand shown; matrix: in vitro; concentration: 600 nM; direction: higher = stronger binding; quantity: E-score
Target: Sal-like protein 4, full length isoform A (SALL4, Homo sapiens, UniProt Q9UJQ4, residues 1-1053)
Chain of UniProt Q9UJQ4 (whole entry, looked up): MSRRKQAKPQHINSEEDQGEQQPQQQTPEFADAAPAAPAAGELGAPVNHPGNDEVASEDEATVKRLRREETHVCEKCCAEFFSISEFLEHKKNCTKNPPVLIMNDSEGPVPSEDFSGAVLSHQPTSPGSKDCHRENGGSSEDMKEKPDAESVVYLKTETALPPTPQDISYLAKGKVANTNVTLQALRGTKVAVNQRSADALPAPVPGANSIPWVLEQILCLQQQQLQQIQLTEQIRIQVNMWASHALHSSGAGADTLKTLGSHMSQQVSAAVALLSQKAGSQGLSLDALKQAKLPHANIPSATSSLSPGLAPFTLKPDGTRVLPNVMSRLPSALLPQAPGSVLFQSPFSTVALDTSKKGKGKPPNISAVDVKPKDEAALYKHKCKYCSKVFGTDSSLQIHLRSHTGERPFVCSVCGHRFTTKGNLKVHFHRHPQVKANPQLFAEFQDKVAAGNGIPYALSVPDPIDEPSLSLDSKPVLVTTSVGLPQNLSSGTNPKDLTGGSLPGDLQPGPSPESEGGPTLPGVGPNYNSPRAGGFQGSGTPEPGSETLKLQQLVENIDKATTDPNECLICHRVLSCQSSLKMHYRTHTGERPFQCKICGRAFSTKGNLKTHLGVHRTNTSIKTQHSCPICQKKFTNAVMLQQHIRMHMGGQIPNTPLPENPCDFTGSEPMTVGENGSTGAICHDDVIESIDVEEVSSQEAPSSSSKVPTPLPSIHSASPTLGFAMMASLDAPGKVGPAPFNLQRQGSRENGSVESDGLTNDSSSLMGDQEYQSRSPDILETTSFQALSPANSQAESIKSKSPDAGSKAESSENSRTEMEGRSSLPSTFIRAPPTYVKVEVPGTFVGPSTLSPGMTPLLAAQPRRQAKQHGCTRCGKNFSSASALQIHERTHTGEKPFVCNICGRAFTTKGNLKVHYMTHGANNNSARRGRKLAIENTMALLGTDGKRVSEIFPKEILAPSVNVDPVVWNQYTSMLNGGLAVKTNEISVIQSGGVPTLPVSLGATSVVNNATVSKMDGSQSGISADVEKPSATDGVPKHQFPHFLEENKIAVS
Setting: 8-mer, flanks averaged, mean of replicates
CACTCTTC: 0.01
AGCCCTTC: -0.215
CTCAAGAG: -0.149
ATCAGGAA: 0.0972
AGGGTCCG: -0.383
AAAACGCG: -0.0331
TTACTAAA: 0.303
AGTCTTAT: 0.255

Sample 3 — read-out: enzyme activity; mode: inhibitor; concentration: 20 µM; quantity: inhibition
Target: Replicase polyprotein 1ab, main protease (rep, Severe acute respiratory syndrome coronavirus 2, UniProt P0DTD1)
Oc1ccc2ccccc2c1SSc1c(O)ccc2ccccc12: -61.1%
Sc1nnc(-c2ccccc2Cl)o1: 82.2%
Oc1cc2c(cc1C(c1ccc(C(F)(F)F)cc1)N1CCOCC1)OCO2 (stereo not shown): 98.7%

Sample 4 — cell line: HEK-293T/ACE2; read-out: pseudovirus infection; organism: VSV pseudotyped with SARS-CoV-2 spike; concentration: concentration not given; reference: vehicle-treated; quantity: GFP-positive cells
CCC(CC)[C@H](NC(C)=O)[C@@H]1[C@H](O)[C@@H](C(=O)O)C[C@H]1NC(=N)N.O.O.O: 71.8%
CC[C@H]1OC(=O)[C@H](C)[C@@H](O[C@H]2C[C@@](C)(OC)[C@@H](O)[C@H](C)O2)[C@H](C)[C@@H](O[C@@H]2O[C@H](C)C[C@H](N(C)C)[C@H]2O)[C@](C)(O)C[C@@H](C)CN(C)[C@H](C)[C@@H](O)[C@]1(C)O: 64.1%
NCCC(O)(P(=O)([O-])O)P(=O)([O-])O.[Na+].[Na+]: 84.3%

Sample 5 — method: protein-binding microarray; molecule type: double-stranded DNA, one strand shown; matrix: in vitro; concentration: 250 nM; setting: 60-bp whole probe; with: salmon DNA 0.4 mg/ml; reference: random background probes; direction: higher = stronger binding; quantity: log fluorescence; shared flanks, not repeated: GCCTAGCAC … GTCTTGATTCGCTTGACGCTGCTG
Target: Interferon regulatory factor 5, full length, phosphomimetic (IRF5, Homo sapiens, UniProt Q13568-2, residues 1-514, K96S/S451D/S453D/S456D/S462D)
GACGGTTTCGACTATCGGGACGTGCTA: 7.13 z-score
TTAGGATTCGGACTGGGTTAGTGCTAG: 0.0941 z-score
GACGGATTGGGTATCGGGACGTGCTAG: 0.721 z-score
GACGGTTTCCTTTCCCGGACGTGCTAG: 1.15 z-score
TCACGAGTCCCTATCTCACTGTGCTAG: -0.4 z-score
TCATCTCTTGTTCTCTCACTGTGCTAG: 0.744 z-score
GACGGTCTCGGACTTGGGACGTGCTAG: -0.427 z-score
GACGGTCTCGGTGTCGGGACGTGCTAG: 0.0434 z-score

Sample 6 — method: protein binding microarray; molecule type: double-stranded DNA, one strand shown; matrix: in vitro; concentration: not given; reference: not given; direction: higher = stronger binding; quantity: E-score
Target: Histone acetyltransferase KAT6A, both winged helices, GST fusion (KAT6A, Homo sapiens, UniProt Q92794, residues 1-181)
Setting: 8-mer, flanks averaged, mean of 2 arrays, mostly near background
Target sequence (chain): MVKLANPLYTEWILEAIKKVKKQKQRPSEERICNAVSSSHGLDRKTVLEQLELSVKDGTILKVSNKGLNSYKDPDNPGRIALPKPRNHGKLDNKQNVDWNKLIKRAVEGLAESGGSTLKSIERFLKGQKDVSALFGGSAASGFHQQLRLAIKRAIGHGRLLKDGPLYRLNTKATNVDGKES
AGGAGCCC: -0.0847
ACTAGAGT: -0.0406
ACAACGAC: 0.0659
ATCTCGCC: 0.0815
ACCAGACC: -0.0601
TTGCCAAA: -0.121
GATGATCA: -0.0203
ACGGGAAT: 0.28
